Results gathered from unrelated publications.
± gives the spread as reported.

| SMILES | system | conditions | scale | measurement | value |
| --- | --- | --- | --- | --- | --- |
| CCCC[C@H](NC(=O)COCCOCCNC(=O)CN1CCN(CC(=O)O)CCN(CC(=O)O)CC1)C(=O)N[C@H]1CC(=O)NCCCC[C@@H](C(N)=O)NC(=O)[C@H](Cc2c[nH]c3ccccc23)NC(=O)[C@H](CCCNC(=N)N)NC(=O)[C@@H](Cc2ccccc2)NC(=O)[C@H](Cc2c[nH]cn2)NC1=O [copper-64 labelled] | C57 mice, liver | intravenous, 0.37 MBq, 24 h |  | tissue uptake | 1.21 ± 0.23 %ID/g |
| N=C(N)NCCC[C@@H]1NC(=O)[C@H](CCCCNC(=O)CNC(=O)CNC(=O)CNC(=O)CC[C@H](NC(=O)CNC(=O)CNC(=O)CNC(=O)CN2CCN(CC(=O)O)CCN(CC(=O)O)CCN(CC(=O)O)CC2)C(=O)NCC(=O)NCC(=O)NCC(=O)NCCCC[C@@H]2NC(=O)[C@@H](Cc3ccccc3)NC(=O)[C@H](CC(=O)O)NC(=O)CNC(=O)[C@H](CCCNC(=N)N)NC2=O)NC(=O)[C@@H](Cc2ccccc2)NC(=O)[C@H](CC(=O)O)NC(=O)CNC1=O [indium-111 labelled] | female athymic nu/nu mice, intestine | intravenous, 72 h |  | tissue uptake | 1.89 ± 0.19 %ID/g |
| CCCC[C@H](NC(=O)CNC(=O)CNC(=O)CN1CCN(CC(=O)O)CCN(CC(=O)O)CCN(CC(=O)O)CC1)C(=O)N[C@H]1CC(=O)NCCCC[C@@H](C(N)=O)NC(=O)[C@H](Cc2c[nH]c3ccccc23)NC(=O)[C@H](CCCNC(=N)N)NC(=O)[C@@H](Cc2ccccc2)NC(=O)[C@H](Cc2c[nH]cn2)NC1=O [lutetium-177 labelled] | C57 mouse, female, lung | intravenous, 0.037 MBq, 24 h |  | tissue uptake | 0.13 ± 0.03 %ID/g |
| C=C1CC[C@H](OCCCNC(=O)CCOCCOCCOCCOCCOCCOCCOCCOCCOCCOCCOCCOCCOCCOCCOCCOCCOCCOCCOCCOCCOCCOCCOCCOCCOCCOCCOCCOCCOCCOCCOCCOCCOCCOCCOCCOCCNC(=O)CCN2C(=O)CC(SC[C@H](NC(=O)[C@H](Cc3ccccc3)NC(=O)[C@H](CC(N)=O)NC(=O)[C@H](Cc3c[nH]cn3)NC(=O)[C@@H](NC(=O)[C@H](CC(=O)O)NC(=O)[C@H](CCC(N)=O)NC(=O)[C@H](CC(C)C)NC(=O)[C@H](CCCCN)NC(=O)[C@H](CCCCN)NC(=O)[C@H](CCCNC(=N)N)NC(=O)[C@H](CC(C)C)NC(=O)[C@H](Cc3c[nH]c4ccccc34)NC(=O)[C@H](CCC(=O)O)NC(=O)[C@@H](NC(=O)[C@H](CCCNC(=N)N)NC(=O)[C@H](CCC(=O)O)NC(=O)[C@H](CCSC)NC(=O)[C@H](CO)NC(=O)[C@H](CC(N)=O)NC(=O)[C@H](CC(C)C)NC(=O)[C@H](Cc3c[nH]cn3)NC(=O)[C@H](CCCCN)NC(=O)CNC(=O)[C@H](CC(C)C)NC(=O)[C@H](CC(N)=O)NC(=O)[C@H](Cc3c[nH]cn3)NC(=O)[C@H](CCSC)NC(=O)[C@H](CC(C)C)NC(=O)[C@H](CCC(N)=O)NC(=O)[C@@H](NC(=O)[C@H](CCC(=O)O)NC(=O)[C@H](CO)NC(=O)[C@@H](NC(=O)[C@@H](N)CO)C(C)C)[C@@H](C)CC)C(C)C)C(C)C)C(N)=O)C2=O)C/C1=C/C=C1\CCC[C@]2(C)[C@@H]([C@H](C)CCCC(C)(C)O)CC[C@@H]12 (some centres unmarked) | Sprague Dawley rat | subcutaneous, daily, except 70 µg/kg | reference: day 1 | accumulation ratio | ~3 fold |
| Cc1cc(-c2ccc(NC(=O)[C@H](CCCCNC(=O)CCN3C(=O)CC(SCCC(=O)N[C@H](Cc4ccccc4)C(=O)N[C@H]4CSSC[C@@H](C(=O)N[C@H](C(=O)O)[C@@H](C)O)NC(=O)[C@H]([C@@H](C)O)NC(=O)[C@H](CCCCN)NC(=O)[C@@H](Cc5c[nH]c6ccccc56)NC(=O)[C@H](Cc5ccc(O)cc5)NC4=O)C3=O)NC(=O)CN3CCN(CC(=O)O)CCN(CC(=O)O)CCN(CC(=O)O)CC3)c(C)c2)ccc1N=Nc1ccc2c(S(=O)(=O)O)cc(S(=O)(=O)O)c(N)c2c1O (some centres unmarked) [lutetium-177 labelled] | patients with metastatic NETs, all metastatic lesions |  |  | residence time | 0.4 ± 0.19 h |
| CC(C)C[C@H](NC(=O)[C@@H](CCCCNC(=O)CCCCCNC(=O)CN1CCN(CC(=O)O)CCN(CC(=O)O)CCN(CC(=O)O)CC1)NC(=O)[C@H](Cc1ccc(O)cc1)NC(=O)[C@H](CO)NC(=O)[C@H](Cc1c[nH]c2ccccc12)NC(=O)[C@H](Cc1cnc[nH]1)NC(=O)[C@@H]1CCC(=O)N1)C(=O)N[C@@H](CCCNC(=N)N)C(=O)N1CCC[C@H]1C(=O)NCC(N)=O [indium-111 labelled] | female athymic nude mouse, spleen | intravenous, 0.037 MBq, 24 h |  | tissue uptake | 0.31 ± 0.11 %ID/g |
| N=C(N)NCCC[C@@H]1NC(=O)[C@H](CCCCNC(=O)CC[C@H](NC(=O)CC[C@H](NC(=O)CN2CCN(CC(=O)O)CCN(CC(=O)O)CCN(CC(=O)O)CC2)C(=O)N[C@@H](CCC(=O)NCCCC[C@@H]2NC(=O)[C@@H](Cc3ccccc3)NC(=O)[C@H](CC(=O)O)NC(=O)CNC(=O)[C@H](CCCNC(=N)N)NC2=O)C(=O)NCCCC[C@@H]2NC(=O)[C@@H](Cc3ccccc3)NC(=O)[C@H](CC(=O)O)NC(=O)CNC(=O)[C@H](CCCNC(=N)N)NC2=O)C(=O)NCCCC[C@@H]2NC(=O)[C@@H](Cc3ccccc3)NC(=O)[C@H](CC(=O)O)NC(=O)CNC(=O)[C@H](CCCNC(=N)N)NC2=O)NC(=O)[C@@H](Cc2ccccc2)NC(=O)[C@H](CC(=O)O)NC(=O)CNC1=O [indium-111 labelled] | female athymic nu/nu mice, lungs | intravenous, 4 h |  | tissue uptake | 2.06 ± 0.39 %ID/g |
| Cc1cc(-c2ccc(NC(=O)[C@H](CCCCNC(=O)CCOCCOCCC(=O)N[C@H](Cc3ccccc3)C(=O)N[C@H]3CSSC[C@@H](C(=O)N[C@H](C(=O)O)[C@@H](C)O)NC(=O)[C@H]([C@@H](C)O)NC(=O)[C@H](CCCCN)NC(=O)[C@@H](Cc4c[nH]c5ccccc45)NC(=O)[C@H](Cc4ccc(O)cc4)NC3=O)NC(=O)CN3CCN(CC(=O)O)CCN(CC(=O)O)CCN(CC(=O)O)CC3)c(C)c2)ccc1N=Nc1ccc2c(S(=O)(=O)O)cc(S(=O)(=O)O)c(N)c2c1O [lutetium-177 labelled] | patients with metastatic NETs, liver metastases |  | reference: cpd over 177Lu-EB-TATE | residence time ratio | 2 fold |

Repeated from above:
| SMILES | system | conditions | scale | measurement | value |
| --- | --- | --- | --- | --- | --- |
| CC(C)C[C@H](NC(=O)[C@@H](CCCCNC(=O)CCCCCNC(=O)CN1CCN(CC(=O)O)CCN(CC(=O)O)CCN(CC(=O)O)CC1)NC(=O)[C@H](Cc1ccc(O)cc1)NC(=O)[C@H](CO)NC(=O)[C@H](Cc1c[nH]c2ccccc12)NC(=O)[C@H](Cc1cnc[nH]1)NC(=O)[C@@H]1CCC(=O)N1)C(=O)N[C@@H](CCCNC(=N)N)C(=O)N1CCC[C@H]1C(=O)NCC(N)=O [indium-111 labelled] | female athymic nude mouse, spleen | intravenous, 0.037 MBq, 24 h |  | tissue uptake | 0.31 ± 0.11 %ID/g |
